Measurements collected from several papers.
Numbered parts are unrelated; each lists some results of a single study.
Chain of UniProt Q7KZI7 (whole entry, looked up): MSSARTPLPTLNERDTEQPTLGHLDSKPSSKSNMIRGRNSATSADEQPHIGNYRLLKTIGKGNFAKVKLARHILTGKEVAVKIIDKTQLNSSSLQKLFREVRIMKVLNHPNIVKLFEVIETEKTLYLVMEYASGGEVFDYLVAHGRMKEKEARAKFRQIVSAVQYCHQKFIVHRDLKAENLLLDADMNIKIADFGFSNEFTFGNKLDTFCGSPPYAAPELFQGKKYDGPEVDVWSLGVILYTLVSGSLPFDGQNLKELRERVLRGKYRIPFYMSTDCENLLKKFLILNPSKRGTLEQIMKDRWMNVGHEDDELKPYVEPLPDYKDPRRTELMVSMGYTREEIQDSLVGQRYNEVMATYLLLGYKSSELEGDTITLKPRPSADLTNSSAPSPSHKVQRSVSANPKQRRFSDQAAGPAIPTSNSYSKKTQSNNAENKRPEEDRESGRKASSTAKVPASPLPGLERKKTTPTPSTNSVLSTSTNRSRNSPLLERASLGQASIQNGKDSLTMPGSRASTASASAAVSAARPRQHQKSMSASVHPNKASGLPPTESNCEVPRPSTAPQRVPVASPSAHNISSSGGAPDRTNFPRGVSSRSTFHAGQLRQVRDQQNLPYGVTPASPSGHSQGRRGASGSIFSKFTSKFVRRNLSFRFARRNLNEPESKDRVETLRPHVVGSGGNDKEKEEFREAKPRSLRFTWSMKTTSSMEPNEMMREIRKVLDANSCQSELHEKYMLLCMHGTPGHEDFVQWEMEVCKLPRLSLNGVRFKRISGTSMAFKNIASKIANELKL
Chain of UniProt P48736 (whole entry, looked up): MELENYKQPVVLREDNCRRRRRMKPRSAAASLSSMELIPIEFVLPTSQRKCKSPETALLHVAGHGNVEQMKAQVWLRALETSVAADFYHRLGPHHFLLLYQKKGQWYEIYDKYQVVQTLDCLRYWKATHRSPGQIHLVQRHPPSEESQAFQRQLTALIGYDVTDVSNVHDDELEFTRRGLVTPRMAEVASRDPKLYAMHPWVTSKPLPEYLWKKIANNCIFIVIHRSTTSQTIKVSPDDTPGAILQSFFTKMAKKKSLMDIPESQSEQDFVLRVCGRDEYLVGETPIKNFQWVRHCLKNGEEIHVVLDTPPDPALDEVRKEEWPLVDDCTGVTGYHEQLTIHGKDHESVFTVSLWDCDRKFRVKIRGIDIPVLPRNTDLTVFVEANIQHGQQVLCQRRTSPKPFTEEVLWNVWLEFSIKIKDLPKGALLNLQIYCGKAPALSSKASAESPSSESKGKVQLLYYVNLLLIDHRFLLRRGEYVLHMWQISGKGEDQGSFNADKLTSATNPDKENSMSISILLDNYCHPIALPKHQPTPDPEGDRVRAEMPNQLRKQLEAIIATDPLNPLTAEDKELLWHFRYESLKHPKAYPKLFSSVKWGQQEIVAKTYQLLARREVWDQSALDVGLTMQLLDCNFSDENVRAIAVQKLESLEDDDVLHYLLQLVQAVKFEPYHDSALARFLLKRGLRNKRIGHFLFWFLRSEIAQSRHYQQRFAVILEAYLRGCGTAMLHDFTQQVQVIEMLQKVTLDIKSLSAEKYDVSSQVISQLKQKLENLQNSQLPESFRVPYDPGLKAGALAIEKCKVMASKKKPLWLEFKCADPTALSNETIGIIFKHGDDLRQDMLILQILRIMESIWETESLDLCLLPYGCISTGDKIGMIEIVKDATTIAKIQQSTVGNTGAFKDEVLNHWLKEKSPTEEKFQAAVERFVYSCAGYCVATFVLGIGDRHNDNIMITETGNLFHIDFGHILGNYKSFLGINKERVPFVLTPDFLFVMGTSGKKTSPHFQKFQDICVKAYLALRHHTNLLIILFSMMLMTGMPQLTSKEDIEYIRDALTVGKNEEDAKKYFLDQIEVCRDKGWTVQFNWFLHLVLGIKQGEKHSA
Chain of UniProt Q96PY6 (whole entry, looked up): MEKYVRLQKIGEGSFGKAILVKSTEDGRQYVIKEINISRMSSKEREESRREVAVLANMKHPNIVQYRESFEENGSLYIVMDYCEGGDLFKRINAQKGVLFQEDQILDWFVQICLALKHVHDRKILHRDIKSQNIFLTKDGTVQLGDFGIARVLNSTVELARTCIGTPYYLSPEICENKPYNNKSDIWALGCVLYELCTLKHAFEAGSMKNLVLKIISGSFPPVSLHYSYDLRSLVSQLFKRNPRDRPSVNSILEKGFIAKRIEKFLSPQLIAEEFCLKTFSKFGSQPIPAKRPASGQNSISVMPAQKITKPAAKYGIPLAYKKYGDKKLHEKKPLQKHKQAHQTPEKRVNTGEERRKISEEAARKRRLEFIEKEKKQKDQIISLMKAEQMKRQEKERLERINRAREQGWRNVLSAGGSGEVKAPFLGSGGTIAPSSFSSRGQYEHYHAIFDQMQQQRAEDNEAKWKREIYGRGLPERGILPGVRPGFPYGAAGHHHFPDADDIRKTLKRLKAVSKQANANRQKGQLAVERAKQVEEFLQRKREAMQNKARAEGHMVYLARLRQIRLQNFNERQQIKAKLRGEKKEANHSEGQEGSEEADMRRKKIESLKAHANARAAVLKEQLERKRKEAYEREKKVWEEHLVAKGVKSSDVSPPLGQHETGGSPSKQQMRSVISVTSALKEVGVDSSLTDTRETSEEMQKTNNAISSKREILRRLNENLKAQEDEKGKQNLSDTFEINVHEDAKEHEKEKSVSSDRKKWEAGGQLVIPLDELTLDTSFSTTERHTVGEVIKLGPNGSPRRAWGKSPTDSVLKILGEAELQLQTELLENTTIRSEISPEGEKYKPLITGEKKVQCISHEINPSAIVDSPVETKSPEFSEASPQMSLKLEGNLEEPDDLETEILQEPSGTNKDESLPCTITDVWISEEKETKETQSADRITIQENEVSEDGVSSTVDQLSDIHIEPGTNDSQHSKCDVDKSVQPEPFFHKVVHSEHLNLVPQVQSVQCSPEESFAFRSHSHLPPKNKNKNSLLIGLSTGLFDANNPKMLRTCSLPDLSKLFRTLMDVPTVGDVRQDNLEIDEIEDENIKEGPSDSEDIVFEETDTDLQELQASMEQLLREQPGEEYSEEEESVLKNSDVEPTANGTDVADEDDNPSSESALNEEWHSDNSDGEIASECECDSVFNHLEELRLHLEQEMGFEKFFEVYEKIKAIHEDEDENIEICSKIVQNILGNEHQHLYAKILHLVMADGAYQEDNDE
Chain of UniProt Q15418 (whole entry, looked up): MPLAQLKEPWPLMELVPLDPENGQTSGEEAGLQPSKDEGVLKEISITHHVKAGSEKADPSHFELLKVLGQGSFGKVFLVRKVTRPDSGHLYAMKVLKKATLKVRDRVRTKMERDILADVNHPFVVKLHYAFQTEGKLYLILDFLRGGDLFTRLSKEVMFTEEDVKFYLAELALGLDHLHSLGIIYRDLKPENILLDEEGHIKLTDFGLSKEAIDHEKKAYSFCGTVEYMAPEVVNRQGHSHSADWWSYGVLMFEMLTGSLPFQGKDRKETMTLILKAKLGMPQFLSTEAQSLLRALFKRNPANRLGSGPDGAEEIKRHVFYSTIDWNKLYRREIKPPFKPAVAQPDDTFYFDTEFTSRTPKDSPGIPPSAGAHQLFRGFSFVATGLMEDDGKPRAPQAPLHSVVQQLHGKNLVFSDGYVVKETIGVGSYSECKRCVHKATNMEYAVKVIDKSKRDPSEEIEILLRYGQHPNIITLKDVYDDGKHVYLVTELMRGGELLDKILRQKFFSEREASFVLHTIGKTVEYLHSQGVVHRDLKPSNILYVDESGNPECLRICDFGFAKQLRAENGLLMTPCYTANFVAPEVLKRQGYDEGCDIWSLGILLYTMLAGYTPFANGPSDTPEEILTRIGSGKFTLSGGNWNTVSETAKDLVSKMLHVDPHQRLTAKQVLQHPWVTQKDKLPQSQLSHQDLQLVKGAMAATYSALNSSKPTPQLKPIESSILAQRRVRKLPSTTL
Chain of UniProt P30530 (whole entry, looked up): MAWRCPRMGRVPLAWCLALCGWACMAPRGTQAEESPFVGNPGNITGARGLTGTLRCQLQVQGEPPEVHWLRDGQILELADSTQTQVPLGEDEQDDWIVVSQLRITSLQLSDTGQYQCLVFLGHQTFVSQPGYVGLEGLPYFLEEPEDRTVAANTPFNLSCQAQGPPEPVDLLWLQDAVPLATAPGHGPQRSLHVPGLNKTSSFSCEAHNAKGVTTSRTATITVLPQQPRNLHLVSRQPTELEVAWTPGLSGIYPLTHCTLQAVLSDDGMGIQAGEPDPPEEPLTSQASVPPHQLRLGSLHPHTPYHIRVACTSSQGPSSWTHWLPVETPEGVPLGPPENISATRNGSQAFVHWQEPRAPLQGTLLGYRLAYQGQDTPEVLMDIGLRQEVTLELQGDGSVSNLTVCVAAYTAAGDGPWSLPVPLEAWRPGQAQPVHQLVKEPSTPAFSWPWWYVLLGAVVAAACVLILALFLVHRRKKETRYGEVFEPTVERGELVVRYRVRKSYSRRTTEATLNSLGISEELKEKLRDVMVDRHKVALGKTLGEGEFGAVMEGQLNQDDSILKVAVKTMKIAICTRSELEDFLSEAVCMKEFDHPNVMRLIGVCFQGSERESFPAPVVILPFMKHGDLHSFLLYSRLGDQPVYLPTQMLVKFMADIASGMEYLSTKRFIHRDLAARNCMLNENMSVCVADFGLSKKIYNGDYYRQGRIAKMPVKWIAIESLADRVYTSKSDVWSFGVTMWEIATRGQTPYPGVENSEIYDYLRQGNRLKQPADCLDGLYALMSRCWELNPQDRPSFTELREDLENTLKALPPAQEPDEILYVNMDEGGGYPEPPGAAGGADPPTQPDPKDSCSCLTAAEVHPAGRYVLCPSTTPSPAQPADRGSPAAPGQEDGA

Block 1 — observed: enzyme activity; mode: inhibitor; tested at: 0.5 µM; baseline: control
Target: Serine/threonine-protein kinase VRK1 (VRK1, Homo sapiens, UniProt Q99986)
Target sequence (Q99986 1-396): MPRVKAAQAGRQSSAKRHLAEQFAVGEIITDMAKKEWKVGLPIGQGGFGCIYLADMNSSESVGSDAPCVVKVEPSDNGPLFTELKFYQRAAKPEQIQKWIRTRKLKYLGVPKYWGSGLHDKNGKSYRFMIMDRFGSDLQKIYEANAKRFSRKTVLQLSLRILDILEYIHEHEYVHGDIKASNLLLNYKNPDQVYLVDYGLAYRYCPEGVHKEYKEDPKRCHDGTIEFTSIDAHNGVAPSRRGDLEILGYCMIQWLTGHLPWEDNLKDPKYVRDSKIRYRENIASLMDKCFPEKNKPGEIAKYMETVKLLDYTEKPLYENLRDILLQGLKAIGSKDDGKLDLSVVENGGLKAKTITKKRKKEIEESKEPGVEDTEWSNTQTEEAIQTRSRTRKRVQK
SMILES	remaining activity
CO[C@H]1C[C@@H]2CC[C@@H](C)[C@@](O)(O2)C(=O)C(=O)N2CCCC[C@H]2C(=O)O[C@H]([C@H](C)C[C@@H]2CC[C@@H](O)[C@H](OC)C2)CC(=O)[C@H](C)/C=C(\C)[C@@H](O)[C@@H](OC)C(=O)[C@H](C)C[C@H](C)/C=C/C=C/C=C/1C	108%
Cc1ccc(Nc2nccc(N(C)c3ccc4c(C)n(C)nc4c3)n2)cc1S(N)(=O)=O	100%
NCCNc1ncc(C(N)=O)c(Nc2cccc(C(F)(F)F)c2)n1	96.8%
O=S(=O)(c1cccc2cnccc12)N1CCCNCC1	87.6%
O=C(O)c1ccc2c3c1cccc3c(=O)n1c3ccccc3nc21	103%
O=c1c2ccccc2[nH]c(=S)n1CCN1CCC(=C(c2ccc(F)cc2)c2ccc(F)cc2)CC1	95.9%
CNC(=O)c1cc(Oc2ccc(NC(=O)Nc3ccc(Cl)c(C(F)(F)F)c3)cc2)ccn1	99.3%
CN(C)c1ccc(C=C2C(=O)Nc3ccccc32)cc1	89%
C#Cc1cccc(Nc2ncnc3cc(OCCOC)c(OCCOC)cc23)c1	103%
Cc1nc(-c2ccccc2)c(-c2ccncc2)o1	98.5%
Cc1cccc(-c2[nH]c(C(C)(C)C)nc2-c2ccc3c(c2)OCO3)n1	97.5%
Nc1ncnc2n[nH]c(Nc3ccc(F)cc3)c12	82.9%
Cn1sc(=O)n(Cc2ccccc2)c1=O	94.2%
COc1cc2ncnc(Nc3ccc(F)c(Cl)c3)c2cc1OCCCN1CCOCC1	99.3%
O=C(Nc1cccc(Nc2cc(Nc3cccc(C(F)(F)F)c3)ncn2)c1)C1CC1	94%
CCOC(=O)c1c(C)[nH]c(/C=C2\C(=O)Nc3ccccc32)c1C	104%

Block 2 — observed: cell-free assay; method: competition with immobilised ligand; tested at: 1 µM
SMILES: Cn1nc(C(F)(F)F)cc1-c1cnc(N2CCc3cc(S(=O)(=O)Nc4c(F)cc(Cl)cc4F)cc(N4CCCC4=O)c32)nc1
target	remaining binding [%]
Serine/threonine-protein kinase TAO2 (TAOK2, Homo sapiens, UniProt Q9UL54)	100
TGF-beta receptor type-2 (TGFBR2, Homo sapiens, UniProt P37173)	81
Serine/threonine-protein kinase mTOR (MTOR, Homo sapiens, UniProt P42345)	78
Serine/threonine-protein kinase 26 (STK26, Homo sapiens, UniProt Q9P289)	73
Serine/threonine-protein kinase MARK2 (MARK2, Homo sapiens, UniProt Q7KZI7)	100
Serine/threonine-protein kinase PAK 6 (PAK6, Homo sapiens, UniProt Q9NQU5)	100
Phosphatidylinositol 4,5-bisphosphate 3-kinase catalytic subunit alpha isoform (PIK3CA, Homo sapiens, UniProt P42336)	100
Tyrosine-protein kinase ITK/TSK (ITK, Homo sapiens, UniProt Q08881)	97
Serine/threonine-protein kinase Nek1 (NEK1, Homo sapiens, UniProt Q96PY6)	100
Proto-oncogene tyrosine-protein kinase ROS (ROS1, Homo sapiens, UniProt P08922)	100
Tyrosine-protein kinase receptor UFO (AXL, Homo sapiens, UniProt P30530)	93
G protein-coupled receptor kinase 4 (GRK4, Homo sapiens, UniProt P32298)	100
Mitogen-activated protein kinase kinase kinase 10 (MAP3K10, Homo sapiens, UniProt Q02779)	93
Ribosomal protein S6 kinase alpha-1, N-terminal kinase domain (RPS6KA1, Homo sapiens, UniProt Q15418)	99
Serine/threonine-protein kinase TBK1 (TBK1, Homo sapiens, UniProt Q9UHD2)	95
Mitogen-activated protein kinase kinase kinase 9 (MAP3K9, Homo sapiens, UniProt P80192)	100
Tyrosine-protein kinase JAK1, JH1 (JAK1, Homo sapiens, UniProt P23458)	100
Phosphatidylinositol 4,5-bisphosphate 3-kinase catalytic subunit gamma isoform (PIK3CG, Homo sapiens, UniProt P48736)	88
Proto-oncogene tyrosine-protein kinase receptor Ret (RET, Homo sapiens, UniProt P07949)	87
Serine/threonine-protein kinase RIO2 (RIOK2, Homo sapiens, UniProt Q9BVS4)	89
Cyclin-dependent kinase 16 (CDK16, Homo sapiens, UniProt Q00536)	77
Ephrin type-A receptor 3 (EPHA3, Homo sapiens, UniProt P29320)	94

Block 3 — method: RNA Bind-n-Seq; form: RNA; medium: in vitro; tested at: 365 nM; baseline: no-protein control; reading: higher = stronger binding
Target: RNA binding protein fox-1 homolog 2, RRM domain, GST-SBP tag (RBFOX2, Homo sapiens, UniProt O43251-10, residues 100-194)
Notes: natural RNA segment, single round, ends assumed
All sequences stand within: GGGAGUUCUACAGUCCGACGAUC … UGGAAUUCUCGGGUGCCAA
Construct (chain): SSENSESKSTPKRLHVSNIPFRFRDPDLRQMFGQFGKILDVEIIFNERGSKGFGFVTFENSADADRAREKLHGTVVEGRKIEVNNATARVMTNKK
Sequence	RBNS enrichment (R)
UUUUGUGCCUGCUGGGAGUAAUUCCUUUAGCAAUUAAGUAUUUGGUAGCUGAAUAAGGGGUCAGAACUUCUGAAACCAGAGAUCUGUAAUCAUCUCUAUUGGCCUGGGGU	0.589
CAAAAAGAGGCAGAUGAUAGACACUGGGGUAGGGUCAUACCACAGGGAAAUACCUUUCCUGGGCUUGUUUUCUAGCAUAUCACUGACCUGGGAUCUUUGGGUGAUCAAGG	0.269
GGCAGCGGGUCUCUGUCCUGGUAUUGAAUUUGCACAAGUGUGUGGUGACAUAUGUGCUUGUGGGCCACAGCUGGAGGAUGGCAAGCUUUCUGUUGUCCUCUGCCUAUGUG	0.333
CUCAUCUCCUCUGCCUGUGUCUGCGACCCCCAUCCAUGUGCCAAAGUGUCCCUUGGGUCACACAGCUAAAGCCGAGGUGACCAGUUGUACCCCGAGUGCCAGGCUUGUGA	1.13
UUGUUGGGACGAGACCAACUGUGCUGUUGCUAUGGGACCUGGAGGAGGGUUAGGCAUGGGUGACACCCCAGAAGGGAACUUUCAUCUUUUCCCUUCCAAAAAUUGUCAAC	0.842
UGUAUAUUAAAAUAGCAUACUGUGUAUGUUUUAUAUCAAAUGCCUUCAUGAAUCUUUCAUACAUAUAUAUAUUUGUAACAUUGUAAAGUAUGUGAGUAGUCUUAUGUAAA	0.661
AUUUGUAAAAUUAACACUAAAGAUGCAUGUGAGUCAUUUCACCAAAAGGAACUCUAUUAAUAAGCUAGACUGCUUUUGGUUUCCAGUAAUUGGUUUAAAAACACAGUAAA	0.542
CAAAGGGCAAGUCAGAAGUUGUUUAUAAAUUACAAAAUAAAGGCAUAUUAUGAACUCUUAUUUUCUGGUUAUAUGACAUUGUCUGAGCUCACUGUGGCAGUGGAGCACAU	0.483

Block 4 — method: protein-binding microarray; form: hairpin DNA; medium: in vitro; tested at: not given; baseline: not given; reading: higher = stronger binding
Target: Homeobox protein Hox-B13, full length (HOXB13, Homo sapiens, UniProt Q92826, residues 1-284)
Chain of UniProt Q92826 (whole entry, looked up): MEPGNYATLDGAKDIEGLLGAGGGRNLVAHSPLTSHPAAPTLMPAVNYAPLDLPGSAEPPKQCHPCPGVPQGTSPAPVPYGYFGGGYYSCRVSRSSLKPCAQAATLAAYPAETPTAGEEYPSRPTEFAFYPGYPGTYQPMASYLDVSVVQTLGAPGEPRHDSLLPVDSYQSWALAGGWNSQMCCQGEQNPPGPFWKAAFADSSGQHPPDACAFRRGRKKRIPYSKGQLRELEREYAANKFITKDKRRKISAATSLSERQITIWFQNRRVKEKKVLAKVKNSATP
Notes: whole hairpin DNA, median over replicate spots
Sequence	median fluorescence [a.u.]
GAGGCCTTTTTACGAGGGCCTCCTGGCCCTCGTAAAAAGGCCTCACACTC	4890
GAGGCCGTTTCACGAGGGCCTCCTGGCCCTCGTGAAACGGCCTCACACTC (5mC at 11)	4690
GAGGCCGTTTTCGTGGGGCCTCCTGGCCCCACGAAAACGGCCTCACACTC	3970
GAGGCCGTTTTCTTGGGGCCTCCTGGCCCCAAGAAAACGGCCTCACACTC (5mC at 12)	3760
GAGGCCGTTTTCGTGGGGCCTCCTGGCCCCACGAAAACGGCCTCACACTC (5mC at 12 32)	3990
GAGGCCGTTGTATTGGGGCCTCCTGGCCCCAATACAACGGCCTCACACTC (5mC at 35)	4200
GAGGCCGTTTTACGCGGGCCTCCTGGCCCGCGTAAAACGGCCTCACACTC	4310
GAGGCCGTTTTACGCGGGCCTCCTGGCCCGCGTAAAACGGCCTCACACTC (5mC at 15)	4050

Excerpt of the above (block 3):
Sequence	RBNS enrichment (R)
GGCAGCGGGUCUCUGUCCUGGUAUUGAAUUUGCACAAGUGUGUGGUGACAUAUGUGCUUGUGGGCCACAGCUGGAGGAUGGCAAGCUUUCUGUUGUCCUCUGCCUAUGUG	0.333
CAAAGGGCAAGUCAGAAGUUGUUUAUAAAUUACAAAAUAAAGGCAUAUUAUGAACUCUUAUUUUCUGGUUAUAUGACAUUGUCUGAGCUCACUGUGGCAGUGGAGCACAU	0.483
UGUAUAUUAAAAUAGCAUACUGUGUAUGUUUUAUAUCAAAUGCCUUCAUGAAUCUUUCAUACAUAUAUAUAUUUGUAACAUUGUAAAGUAUGUGAGUAGUCUUAUGUAAA	0.661
CUCAUCUCCUCUGCCUGUGUCUGCGACCCCCAUCCAUGUGCCAAAGUGUCCCUUGGGUCACACAGCUAAAGCCGAGGUGACCAGUUGUACCCCGAGUGCCAGGCUUGUGA	1.13
AUUUGUAAAAUUAACACUAAAGAUGCAUGUGAGUCAUUUCACCAAAAGGAACUCUAUUAAUAAGCUAGACUGCUUUUGGUUUCCAGUAAUUGGUUUAAAAACACAGUAAA	0.542
UUUUGUGCCUGCUGGGAGUAAUUCCUUUAGCAAUUAAGUAUUUGGUAGCUGAAUAAGGGGUCAGAACUUCUGAAACCAGAGAUCUGUAAUCAUCUCUAUUGGCCUGGGGU	0.589
UUGUUGGGACGAGACCAACUGUGCUGUUGCUAUGGGACCUGGAGGAGGGUUAGGCAUGGGUGACACCCCAGAAGGGAACUUUCAUCUUUUCCCUUCCAAAAAUUGUCAAC	0.842
CAAAAAGAGGCAGAUGAUAGACACUGGGGUAGGGUCAUACCACAGGGAAAUACCUUUCCUGGGCUUGUUUUCUAGCAUAUCACUGACCUGGGAUCUUUGGGUGAUCAAGG	0.269
